Values quoted from earlier work, collected from citations in different studies.
Protocols differ between the studies behind these lines.
B1: CCL1; sequence looked up; chain KSMQVPFSRCCFSFAEQEIPLRAILCYRNTSSICSNEGLIFKLKRGKEACALDTVGWVQRHRKMLRHCPSKRK

`hydroxysafflor yellow A` has an effective dose of 92 mg/kg (kidney protection; rat renal ischaemia-reperfusion injury; intraperitoneal).
`human hepcidin`: “time to return to baseline” no more than 48 h (item: serum iron; healthy human, serum; subcutaneous, dose not given).
`brentuximab vedotin` — result for “complete response rate”: 66% (relapsed/refractory ALCL patients, human; dose not given, PTCL).
`B1 (CCL1)` gave an EC50 of 0.128 µM (CCR8 W194A mutant; IP accumulation, agonist).
`bevacizumab`: “median progression-free survival” 3.5 months (patients with recurrent glioblastoma; dose not given, CheckMate-143 trial).
`amivantamab` — result for “objective response rate”: 40% (clinical trial; human, NSCLC patients; dose not given).
`ifinatamab deruxtecan` has a partial response of 75% (patients with SCLC; dose not given).
Under “body weight reduction”, `retatrutide` is recorded as 24.2% (human, obese adults; 12 mg, 48 weeks, trial).
For `pembrolizumab`, the progression-free survival was 9.5 to 12.7 months (HNSCC patients; dose not given, second-line therapy after first-line compound).
`pegcetacoplan` — result for micronucleus induction: “negative” (TK6; with and without S9 activation).
The MIC of `GVPMGSVIKKRRKRMAKKKHRKLLRKTRHQRRNKK` is reported as 11 µM (Pseudomonas aeruginosa; peptide, ATCC 15692).
For `mogamulizumab`, “overall response rate” read 22 to 34% (human relapsed/refractory PTCL patients; dose not given).
The MIC of `KWIKIWFIWRRIKWRK` is reported as 15.6 µg/mL (Staphylococcus aureus; peptide).
With `indirubin-3'-monoxime` the IC50 was greater than 30 µM (vasculogenesis; zebrafish embryos).

Some of these lines once more:
`hydroxysafflor yellow A` has an effective dose of 92 mg/kg (kidney protection; rat renal ischaemia-reperfusion injury; intraperitoneal).
